Assay results gathered from unrelated publications.
Each numbered part is a random draw from the data of one study; scales do not carry over between parts.

Series 1 — technique: aptamer microarray, sandwich; molecule type: DNA with 2'F-ANA; matrix: in vitro; concentration: 200 nM; with: Cy3 exosite-II aptamer, 400 nM; reading: higher = stronger binding; sequence: GGTTGGTGTGGTTGG
Target: Prothrombin, mature alpha-thrombin (F2, Homo sapiens, UniProt P00734)
Setting: whole 15-mer aptamer, many near background
Modification	mean fluorescence intensity
2'F-ANA at 5 7 12 14 15	47.4 a.u.
2'F-ANA at 1 7 8 14 15	65.4 a.u.
2'F-ANA at 1 2 4 5 6 8 9 10 14	51.5 a.u.
2'F-ANA at 7 10 11 14	113 a.u.
2'F-ANA at 1 2 3 5 8 9 10 11 13	53.6 a.u.
2'F-ANA at 2 5 7 9 12 14	47 a.u.
2'F-ANA at 1 2 3 4 9 10 11 14	77.4 a.u.
2'F-ANA at 1 5 7 8 9 12 13 15	79.4 a.u.
2'F-ANA at 1 3 5 6 7 8 9 10 13 14 15	44.7 a.u.
2'F-ANA at 2 5 10 11	101 a.u.
2'F-ANA at 2 5 6 7 8 9 10 13 15	43.8 a.u.
2'F-ANA at 2 6 8 9 10 11 14	81.3 a.u.
2'F-ANA at 4 5 6 12 14 15	52.3 a.u.
2'F-ANA at 1 4 6 7 9 10 11 12 13 14	46.3 a.u.
2'F-ANA at 1 2 3 4 5 6 8 12 13 15	86.5 a.u.
2'F-ANA at 1 3 4 7 9 10 11 14 15	54.3 a.u.

Series 2 — technique: RNA Bind-n-Seq; molecule type: RNA; matrix: in vitro; concentration: 365 nM; reference: no-protein control; reading: higher = stronger binding
Target: RNA binding protein fox-1 homolog 2, RRM domain, GST-SBP tag (RBFOX2, Homo sapiens, UniProt O43251-10, residues 100-194)
Setting: natural RNA segment, single round, ends assumed
All sequences stand within: GGGAGUUCUACAGUCCGACGAUC … UGGAAUUCUCGGGUGCCAA
Residues (chain): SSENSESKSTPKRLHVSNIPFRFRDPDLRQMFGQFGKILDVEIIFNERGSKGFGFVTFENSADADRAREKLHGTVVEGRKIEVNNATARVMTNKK
Sequence	RBNS enrichment (R)
ACUCACACUUCUAUAUUUGCACUGGGGAAGACAUAUUCCUAAAAAUGGAUACAUAACAAAGAAUUCUCUGUGACUUAUUAAGAAUGACUGUGUCUGCCCAGUAACCUGUU	0.445
GUAGCUGGAGCCUCUGGGCUCCUCAGUCCCAUGCAACAUCCCUGGGACCUGGGGAAGGGAUGCUGAGACACAAGCAGGUCUUCUUAGCUCCAUGUUGGGAGAUGUUGGGG	0.52
UUCUUGCCUUACUACAGUGAUGGUCCCAGUGGAUAGAGCAGCUGCACUGGGCAACCUCAUCUUGCCUGCUCUCCCGCACCUGCUGGGACAUGAGCAUCUUGGGAUAUCUC	0.532
UGGGUGGAUACUUGAACCCCAGACGCCCCUCUGUGCUGCUGUGUCCGGAGGCGGCCUUCCCAUCUGCCUGCCCACCCGGAGCUCUUUCCGCCGGCGCAGGGUCCCAAGCC	0.332
UUAGACUAAUCACUGGUGGAAAUUAAAUAUGGCAGUUAUGUUAGGUUUCCUAAUAUUUCAAAGGUUCCAAAGGAUCUAGAGCUCUCUAGUUACAUAGCAUUCAUAUAGGA	0.669
CUUUUGGUUUCCCAAAGCAAUAUUUUACUUUUCAUUUAUUAUAGUUUGAAAGACAUUUUUCAUUGUUCCAUUACCUAUAGAAAUGGUAUUUCAUGACCUAGGGAAAAAGG	0.359
UGUCUUUAUUUAAAAUGAUGAAUCUAGUCUGAAUCAGCUGUUAUUCCAAGCUAUCAUGCUUAAGCUAUGUCAACAGCAUUUAUUUGUACUAAUGCUAAUAUUUCCAUCAA	0.593
AUCAAUAGGCUUAAUGAAAGAGGUCUUUCUUGCUUUGGCUGAGAGCAGCCUCUUUUUAAAGUGUGAUGUUUUGCCUUUCCACCUAAAGACCAGGAGAGAAUUUGGGCCCU	0.224
AAUCAGGGUUUUACCAGGGGCUCAGAGAUAAAAAGAAAACCUAUUCCUAUCUUAGCAUUUUGGUCUCAUUGGUUUAUAGACUCUGAUAAUAUCCCUAUCCAUGGAUCAUU	1.19
AGGUCACAUUUUUCCCCCGUGGGGAAAUAAACUGACUUUGGACUGCUUCAGUCUCUGCCAUCUUCCAUGACUGCAUUUGUUCCUGCCUGCCUCGGCGGUAUCCACAGAAG	0.807
CCCAGCCCCUGCGUUAAGGUCCCUGGAGAGGUGGCGUCAGUGGGGGUGAGGAAGGGCAUCUUCCUGACUCCUCUGCCCAGUGCUGGAAGGAGCAUGCCUGGGUUAGUGGG	3.02
UGCCUCAGUUGAGCAUCUAGGAAGUAUUAAAACUGUGAAGCUUUCUCAGUGCACUUUGAACCUGGAAAACAAUCCCAACAGGCCCGUGGGACCAUGACUUAGGGAGGUGG	0.494

Series 3 — technique: RNA Bind-n-Seq; molecule type: RNA; matrix: in vitro; concentration: not given; reference: input RNA pool; reading: higher = stronger binding
Target: RING finger protein unkempt homolog, zinc fingers 1-6, GST-SBP tag (UNK, Homo sapiens, UniProt Q9C0B0, residues 30-357)
Sequence of UniProt Q9C0B0 (30-357, looked up): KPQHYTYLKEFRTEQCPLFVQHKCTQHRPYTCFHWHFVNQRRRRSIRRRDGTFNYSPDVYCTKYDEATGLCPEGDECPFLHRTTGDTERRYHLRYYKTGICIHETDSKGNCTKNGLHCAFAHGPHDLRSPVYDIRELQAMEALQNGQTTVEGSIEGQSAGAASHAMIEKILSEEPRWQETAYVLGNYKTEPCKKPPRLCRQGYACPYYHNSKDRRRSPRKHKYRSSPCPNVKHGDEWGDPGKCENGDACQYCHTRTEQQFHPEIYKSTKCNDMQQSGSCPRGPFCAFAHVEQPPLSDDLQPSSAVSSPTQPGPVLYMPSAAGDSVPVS
Setting: RNA with constant flanks, human-mouse chimeric sites, ends assumed
All sequences stand within: GGGAGUUCUACAGUCCGACGAUC … CAACAGAGGAUUGAGCAUCA
Sequence	bound/input enrichment [ratio]
GAAAGAGAACUAAAGCAACUAAUAGAGAAGAGGAUUGGCAAAGAGAAUUUCAUAGAGGAAACUAGGAUUAUUAGCAAACAUGAGUUAUAUUCCAGAGCGUCUCAGAAACCCCAGCCAAAC	3.57
AACAGAUUGUCUUUAAGGUCAACGUAGGAGAAUGCUGGGGUGAUCAUUGUUGCCCAUGUGCCUUCUGACUGAGCUUUAAUGCUGUUCCAUGUUACAUCUUUCCUUCAUUGCAUAUUUGUU	0.131
AAAGAGAAACUAAAGCAAACUGAUUGAAAGAGGAUUGGCAAAGAGAAUUUCAUAGAGAAACUAGGAUUUAUUAGCAAAACAUGAGUUUAUUCCAGAGCGUCUCAGAAACCCCAGCCAAAC	7.34
AUAGAUGAAAUUGAUGUGGACCAGGAAGGAAUUGCAGAAAUGAUCCUGGAUGAAAAUGCUAUUGCUCAGGUCCCACGCCCUGGCACAUCUUUGAAGCUCCCUGGCACUAACCAAACAGGA	0.314
AAAGAGUGGAUAGAGUGUGCACACGGGAUCGGUGGGACCCGGGCGAAAAAGGAGUGCAAGAUAGAGUUCGAUGACUUCGUAGAGUGUUUGCUUCGGCACAAAACGAUGAGGCGAAUGCAU	0.325
GAUCCACAGUGGUCUGAGGAGCAACUCAUUGCUGCAAAAUUCUGUUUUGCUGGCCUUGUUAUAGGGCAGACUGAAGUGGAUAUCAUGAGUCAUGCCACACAAGCUAUUUUUGAAAUUCUG	0.209
GGAAGUACAAUGAUGGAAAUAGAUGGCGAUAAAGGCAAGCAGGGCGGGCCCACCUACUACAUAGACACCAAUGCCCUCCGCGUGCCCAGGGAGAACAUGGAGGCCAUCUCACCACUCAAG	0.282
CUAAUCCCCUUUACUGCUCCCCCACUUCUCAUGGUAAUAACAAAGUCUUAUAUCCCCAUAUUAGCUUUCACUCAGAUGGCUUAUGGAGCCGGUUUCCUAGCUUUCUUGGGAGGGAUCAGA	0.596
GUCAACAGCUGCCUCAACCCCAUCCUCUACGCCUUCCUGGAUGAGAACUUCAAGGCCUGCUUUAGAAAGUUCUGCUGUGCAUCUGCCCUGCGCCGGGACGUGCAGGUGUCUGACCGCGUG	0.375
AAAGAGUGGAUAGAGUGUGCACACGGGAUCGGUGGGACCCGGGCGAAAAAGGAGUGCAAGAUAGAGUUCGAUGACUUCGAAGAGUGCUUGCUUCGGUAGAAAACGAUGAGGCGAAUGCAU	0.504
UGUGCAUAUGAUGCUUGAGAUGGUUUUUGCAAAAGCAGAAAUCGCUGCAAGGUAAUCACAAUAGAUACAAGCGGUAUUUUAAACCUUUGAAAGGAAUGGAUGUAACUGUACCUUGGUACA	0.157

Series 4 — technique: protein binding microarray; molecule type: double-stranded DNA, one strand shown; matrix: in vitro; concentration: not given; reference: not given; reading: higher = stronger binding
Target: Histone acetyltransferase KAT6A, winged helix 2, GST fusion (KAT6A, Homo sapiens, UniProt Q92794, residues 85-181)
Setting: 8-mer, flanks averaged, mean of 2 arrays, mostly near background
Residues (chain): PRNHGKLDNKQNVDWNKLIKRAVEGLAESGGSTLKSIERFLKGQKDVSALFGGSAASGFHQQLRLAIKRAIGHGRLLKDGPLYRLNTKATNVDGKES
Sequence	E-score
AAGATCCC	-0.0159
GAGTCCAC	-0.089
CATTCCCA	-0.0818
GCATCCGC	0.119
ACGTTCTC	-0.17
CCGGGTCA	0.0279
CGCGGTGA	0.0446
GACCCAGC	-0.0591
AAATCCCC	-0.0713
AATATCGC	-0.108
ATACATGA	-0.133
CCGGTGTC	-0.0201
AGAAAATC	0.0536
GGCTCATA	-0.151
TCTAGTCA	-0.188
AACGGCGC	0.122
ACGGTTTA	-0.0829
CATCCCAA	0.0733
TTACGTAA	-0.37

Series 5 — technique: RNA Bind-n-Seq; molecule type: RNA; matrix: in vitro; concentration: 1 µM; setting: whole 134-nt RNA, ends assumed; with: 150 mM KCl; reference: input library; reading: higher = stronger binding
Target: Ras GTPase-activating protein-binding protein 1, C-terminal RGG region (G3BP1, Homo sapiens, UniProt Q13283)
Sequence of UniProt Q13283 (whole entry, looked up): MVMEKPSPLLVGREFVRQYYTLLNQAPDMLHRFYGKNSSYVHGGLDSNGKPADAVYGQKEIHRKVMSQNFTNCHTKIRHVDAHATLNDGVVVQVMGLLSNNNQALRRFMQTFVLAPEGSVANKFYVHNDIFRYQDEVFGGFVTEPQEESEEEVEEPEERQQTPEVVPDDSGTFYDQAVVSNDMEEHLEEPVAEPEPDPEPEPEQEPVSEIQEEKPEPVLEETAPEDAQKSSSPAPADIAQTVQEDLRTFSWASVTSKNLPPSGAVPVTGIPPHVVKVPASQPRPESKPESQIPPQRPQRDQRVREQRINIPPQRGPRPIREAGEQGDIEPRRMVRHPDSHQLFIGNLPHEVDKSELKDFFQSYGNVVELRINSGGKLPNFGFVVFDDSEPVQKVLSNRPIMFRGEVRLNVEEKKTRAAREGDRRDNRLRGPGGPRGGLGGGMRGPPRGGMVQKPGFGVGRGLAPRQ
All sequences stand within: GGGAGUUCUACAGUCCGACGAUC … UGGAAUUCUCGGGUGUCAAGG
Sequence	log2 enrichment
AGUCCUGUGCUACACAUCGUAUGUACCGAAUCGGUUUUGGGGUUUUGGGGUUUUGGGAAAGUAUUAUGUUACGCCGUUCGGAUCUGCACU	-0.596
UCAAGUCCUGUGCUACACAUCGUAUGUACCGAAUCGGGGAAAGGAAAGGAAAGGGAAAGUAUUAUGUUACGCCGUUCGGAUCUGCACUUC	-1.64
CUGUGCUACACAUCGUAUGUACCGAAUCGGGGCCCCCCGGGCCCCCCGGGGCCCCCCGGGGAAAGUAUUAUGUUACGCCGUUCGGAUCUG	-2.15
UGGCCCUGGUGGCAUGCGGGGACGAAGAGGUGGCCUCAUGGAUCGUGGUGGUCCCGGUGGAAUGUUCAGAGGUGGCCGUGGUGGAGACAG	2.49
ACCAUGCAGGUGGGCAUCUUUGGGAAGUGGGGCAAGGGGGGGAUAGGGAGGGGGAUAACACUUUGGGAACAGGUGGUCCCAGGUCGUUUC	1.75
AAGUCCUGUGCUACACAUCGUAUGUACCGAAUCGGUUUUUGGUUUUUUUGGAAAGGAAAGUAUUAUGUUACGCCGUUCGGAUCUGCACUU	-2.05
UGGCCAAUAGCAUCCUUUUCCAGUCUUCCGGUCUGACAAAUGGAAUAAUAGAAGAAAAGGACAUACAUGAAGAAUUGCCAAAACGGAAAG	-1.89
ACCAUGCAGGUGGGCAUCUUUGGGAAGUGGGGCACGGGGGGGAUAGGGAGGGGGGUAACACUUUGGGAACAGGUGGUCCCAGGUCGUUUC	-1.13
AAGUCCUGUGCUACACAUCGUAUGUACCGAAUCGGAAAAAGGUUUGGUUUUUUUGGAAAGUAUUAUGUUACGCCGUUCGGAUCUGCACUU	-1.86
CUGUGCUACACAUCGUAUGUACCGAAUCGGGAAAAAAAGGGAAAAAAAGGGAAAAAAAGGGAAAGUAUUAUGUUACGCCGUUCGGAUCUG	-1.68
GUCCUGUGCUACACAUCGUAUGUACCGAAUCAAAUUUUUAAACCCAAAUUUUUUUAAAAAAGUAUUAUGUUACGCCGUUCGGAUCUGCAC	-1.16
UCCUCAAGUCCUGUGCUACACAUCGUAUGUACCGAAUCGGAAAGGAGGUGGAAAGUAUUAUGUUACGCCGUUCGGAUCUGCACUUCCAGC	-1.22
CCUCAAGUCCUGUGCUACACAUCGUAUGUACCGAAUCGGGAGGGGAGGGAGGAAAGUAUUAUGUUACGCCGUUCGGAUCUGCACUUCCAG	0.49
CUCAAGUCCUGUGCUACACAUCGUAUGUACCGAAUCGGGUUGGGUUGGGUUGGAAAGUAUUAUGUUACGCCGUUCGGAUCUGCACUUCCA	0.0305

For quick reference, copied from above (series 4):
Sequence	E-score
AAATCCCC	-0.0713
AATATCGC	-0.108
ATACATGA	-0.133
CCGGTGTC	-0.0201
AGAAAATC	0.0536
GGCTCATA	-0.151
